Measured values from different studies.
Numbered parts are unrelated; each lists some results of a single study. Values joined by “and” are separate records of one study, mostly repeats; a detail may differ.
Sequence of UniProt P52564 (whole entry, looked up): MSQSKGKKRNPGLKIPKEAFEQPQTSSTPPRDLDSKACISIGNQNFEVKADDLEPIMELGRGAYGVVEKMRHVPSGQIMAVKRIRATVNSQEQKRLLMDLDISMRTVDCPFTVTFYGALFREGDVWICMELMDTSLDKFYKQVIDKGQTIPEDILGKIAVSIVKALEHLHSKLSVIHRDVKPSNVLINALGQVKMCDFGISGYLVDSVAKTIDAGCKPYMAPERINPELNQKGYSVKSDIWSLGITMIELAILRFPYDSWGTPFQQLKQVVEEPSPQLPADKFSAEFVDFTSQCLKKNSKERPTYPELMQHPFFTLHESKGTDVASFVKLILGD
Sequence of UniProt P35968 (whole entry, looked up): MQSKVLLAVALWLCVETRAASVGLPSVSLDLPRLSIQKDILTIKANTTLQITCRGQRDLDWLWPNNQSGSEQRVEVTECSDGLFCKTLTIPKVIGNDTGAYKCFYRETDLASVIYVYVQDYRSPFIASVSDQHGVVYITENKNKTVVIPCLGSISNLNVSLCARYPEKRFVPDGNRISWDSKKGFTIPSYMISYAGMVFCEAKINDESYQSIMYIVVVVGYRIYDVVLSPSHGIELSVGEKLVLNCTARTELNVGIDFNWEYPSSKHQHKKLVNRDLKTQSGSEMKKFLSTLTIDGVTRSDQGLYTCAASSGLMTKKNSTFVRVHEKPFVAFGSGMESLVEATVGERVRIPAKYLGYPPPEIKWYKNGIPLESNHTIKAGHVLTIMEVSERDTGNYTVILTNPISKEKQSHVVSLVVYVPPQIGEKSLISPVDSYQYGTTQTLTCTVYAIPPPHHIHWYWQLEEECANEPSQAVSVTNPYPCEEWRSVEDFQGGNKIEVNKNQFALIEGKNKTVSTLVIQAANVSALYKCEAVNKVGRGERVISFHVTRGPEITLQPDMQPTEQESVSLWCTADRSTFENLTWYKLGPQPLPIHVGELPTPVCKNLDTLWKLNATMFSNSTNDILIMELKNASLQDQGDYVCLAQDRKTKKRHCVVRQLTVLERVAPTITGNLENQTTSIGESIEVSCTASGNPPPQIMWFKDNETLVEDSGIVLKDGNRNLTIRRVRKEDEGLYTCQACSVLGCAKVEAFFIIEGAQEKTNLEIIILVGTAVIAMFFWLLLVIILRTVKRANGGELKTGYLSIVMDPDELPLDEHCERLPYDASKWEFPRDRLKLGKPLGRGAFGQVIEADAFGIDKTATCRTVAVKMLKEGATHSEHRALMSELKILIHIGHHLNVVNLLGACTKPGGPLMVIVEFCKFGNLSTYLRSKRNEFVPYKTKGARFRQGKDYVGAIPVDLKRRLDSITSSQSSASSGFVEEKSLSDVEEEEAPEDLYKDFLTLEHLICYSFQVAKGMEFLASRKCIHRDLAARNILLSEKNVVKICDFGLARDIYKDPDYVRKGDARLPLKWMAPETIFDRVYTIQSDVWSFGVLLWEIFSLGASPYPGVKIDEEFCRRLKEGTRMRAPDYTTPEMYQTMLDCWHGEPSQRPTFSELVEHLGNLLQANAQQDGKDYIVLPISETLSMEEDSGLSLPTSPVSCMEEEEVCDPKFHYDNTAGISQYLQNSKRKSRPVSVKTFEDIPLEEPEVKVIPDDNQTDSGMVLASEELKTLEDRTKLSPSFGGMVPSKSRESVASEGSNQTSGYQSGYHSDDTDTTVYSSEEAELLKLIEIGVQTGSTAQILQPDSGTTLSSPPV
Sequence of UniProt P51957 (whole entry, looked up): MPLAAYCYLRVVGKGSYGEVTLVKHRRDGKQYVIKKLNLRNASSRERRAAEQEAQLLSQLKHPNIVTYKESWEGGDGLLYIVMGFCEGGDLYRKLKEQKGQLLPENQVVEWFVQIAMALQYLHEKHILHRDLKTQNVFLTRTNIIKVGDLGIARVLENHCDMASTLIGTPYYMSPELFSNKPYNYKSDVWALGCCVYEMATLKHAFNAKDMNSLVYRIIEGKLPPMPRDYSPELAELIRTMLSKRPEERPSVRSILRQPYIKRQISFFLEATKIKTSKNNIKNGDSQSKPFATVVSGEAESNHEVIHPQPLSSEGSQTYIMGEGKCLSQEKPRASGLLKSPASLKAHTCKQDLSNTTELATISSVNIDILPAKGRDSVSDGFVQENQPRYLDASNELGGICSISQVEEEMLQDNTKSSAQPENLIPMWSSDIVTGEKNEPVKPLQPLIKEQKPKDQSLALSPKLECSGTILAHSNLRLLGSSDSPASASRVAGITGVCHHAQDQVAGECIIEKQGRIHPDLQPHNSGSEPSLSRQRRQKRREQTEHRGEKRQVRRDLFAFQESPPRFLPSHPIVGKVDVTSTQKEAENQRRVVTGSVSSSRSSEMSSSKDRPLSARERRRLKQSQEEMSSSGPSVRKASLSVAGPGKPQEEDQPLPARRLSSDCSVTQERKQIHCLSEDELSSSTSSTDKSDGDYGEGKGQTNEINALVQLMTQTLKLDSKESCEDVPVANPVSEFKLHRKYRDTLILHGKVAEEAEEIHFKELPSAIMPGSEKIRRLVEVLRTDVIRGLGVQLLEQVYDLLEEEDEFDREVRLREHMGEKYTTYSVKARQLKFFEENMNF
Sequence of UniProt Q9BUB5 (whole entry, looked up): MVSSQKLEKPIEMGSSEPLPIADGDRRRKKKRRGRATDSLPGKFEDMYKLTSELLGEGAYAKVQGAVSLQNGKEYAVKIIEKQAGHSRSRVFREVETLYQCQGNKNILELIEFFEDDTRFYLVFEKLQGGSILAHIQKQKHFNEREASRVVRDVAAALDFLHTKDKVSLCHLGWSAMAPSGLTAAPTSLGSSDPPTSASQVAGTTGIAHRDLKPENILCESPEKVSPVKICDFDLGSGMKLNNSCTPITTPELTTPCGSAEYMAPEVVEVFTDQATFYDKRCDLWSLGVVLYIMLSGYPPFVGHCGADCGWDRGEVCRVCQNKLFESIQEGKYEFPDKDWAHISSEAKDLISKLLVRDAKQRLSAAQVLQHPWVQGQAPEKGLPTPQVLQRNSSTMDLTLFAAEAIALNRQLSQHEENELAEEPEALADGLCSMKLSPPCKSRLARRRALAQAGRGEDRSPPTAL
Sequence of UniProt P09619 (whole entry, looked up): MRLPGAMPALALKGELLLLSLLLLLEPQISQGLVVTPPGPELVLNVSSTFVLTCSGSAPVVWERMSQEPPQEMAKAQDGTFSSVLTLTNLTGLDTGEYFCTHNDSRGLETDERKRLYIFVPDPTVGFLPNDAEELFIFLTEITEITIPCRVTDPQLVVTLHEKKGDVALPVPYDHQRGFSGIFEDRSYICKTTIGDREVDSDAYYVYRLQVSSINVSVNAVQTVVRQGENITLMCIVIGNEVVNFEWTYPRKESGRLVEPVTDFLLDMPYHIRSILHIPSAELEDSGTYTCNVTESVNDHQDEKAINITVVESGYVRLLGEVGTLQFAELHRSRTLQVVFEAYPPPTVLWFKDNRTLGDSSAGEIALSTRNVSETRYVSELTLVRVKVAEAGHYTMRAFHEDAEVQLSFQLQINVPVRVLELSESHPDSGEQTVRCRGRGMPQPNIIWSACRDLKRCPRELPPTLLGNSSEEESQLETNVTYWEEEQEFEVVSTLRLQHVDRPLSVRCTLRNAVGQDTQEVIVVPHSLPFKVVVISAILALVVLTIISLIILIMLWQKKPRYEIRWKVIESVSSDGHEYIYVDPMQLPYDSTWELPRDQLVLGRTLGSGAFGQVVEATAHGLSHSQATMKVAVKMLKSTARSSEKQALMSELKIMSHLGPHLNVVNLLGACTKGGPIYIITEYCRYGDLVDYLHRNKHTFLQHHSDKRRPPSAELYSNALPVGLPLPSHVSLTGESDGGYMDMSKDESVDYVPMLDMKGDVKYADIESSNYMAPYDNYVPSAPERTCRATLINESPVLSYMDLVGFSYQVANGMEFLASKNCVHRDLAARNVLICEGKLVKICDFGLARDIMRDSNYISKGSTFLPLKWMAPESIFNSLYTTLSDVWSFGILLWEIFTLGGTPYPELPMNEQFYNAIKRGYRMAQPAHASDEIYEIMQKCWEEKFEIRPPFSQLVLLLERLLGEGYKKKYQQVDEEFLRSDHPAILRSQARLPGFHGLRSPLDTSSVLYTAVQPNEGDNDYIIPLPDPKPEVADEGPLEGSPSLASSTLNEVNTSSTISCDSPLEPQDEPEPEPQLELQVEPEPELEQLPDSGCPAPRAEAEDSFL
Sequence of UniProt P50750 (whole entry, looked up): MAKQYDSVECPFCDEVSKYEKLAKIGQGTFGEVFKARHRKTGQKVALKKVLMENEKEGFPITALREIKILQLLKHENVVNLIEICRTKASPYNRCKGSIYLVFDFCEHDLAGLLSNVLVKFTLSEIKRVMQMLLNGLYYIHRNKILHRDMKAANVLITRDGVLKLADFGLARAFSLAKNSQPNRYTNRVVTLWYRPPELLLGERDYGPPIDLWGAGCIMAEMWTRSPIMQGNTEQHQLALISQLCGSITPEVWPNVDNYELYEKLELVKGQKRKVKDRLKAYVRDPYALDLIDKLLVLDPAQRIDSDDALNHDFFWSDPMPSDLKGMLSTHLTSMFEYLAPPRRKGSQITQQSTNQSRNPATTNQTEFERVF
Sequence of UniProt P53778 (whole entry, looked up): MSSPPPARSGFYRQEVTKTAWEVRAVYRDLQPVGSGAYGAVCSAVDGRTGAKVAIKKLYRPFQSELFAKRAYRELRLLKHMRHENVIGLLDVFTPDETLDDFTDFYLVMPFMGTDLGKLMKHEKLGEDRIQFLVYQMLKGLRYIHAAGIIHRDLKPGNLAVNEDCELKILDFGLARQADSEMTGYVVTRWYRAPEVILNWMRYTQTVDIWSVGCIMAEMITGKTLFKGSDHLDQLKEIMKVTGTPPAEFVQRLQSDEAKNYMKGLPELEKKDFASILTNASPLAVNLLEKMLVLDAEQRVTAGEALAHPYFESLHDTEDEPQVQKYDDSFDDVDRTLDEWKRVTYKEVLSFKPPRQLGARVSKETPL

Block 1
Cell line: mouse MPNST tumor cells
Method: high-content nuclear imaging
Measured: cell number
Tested at: 10 µM
Time: 12 h
Notes: mean of 2 replicates
Reference: plate mean
Direction: higher = more cells
Quantity: nuclei count
CCO[C@@H](Cc1ccc(OCCc2ccc(OS(C)(=O)=O)cc2)cc1)C(=O)O: 0.953 z-score
O=C1CC[C@@H](C(=O)N2CSC[C@H]2C(=O)O)N1: 0.488 z-score
O=c1n(CCCN2CCN(c3cccc(Cl)c3)CC2)nc2ccccn12: 0.798 z-score and 0.445 z-score and 1.01 z-score
CCC(=O)O[C@@H](O[P@](=O)(CCCCc1ccccc1)CC(=O)N1C[C@H](C2CCCCC2)C[C@H]1C(=O)O)C(C)C: 0.8 z-score
NC(=O)c1noc([C@H](CCCC2CCCCC2)CC(=O)NO)n1: 2.89 z-score
Cc1cccc(N2CCN(C(=O)c3cc(S(=O)(=O)N(C)C)ccc3N3CCCC3)CC2)c1C: 3.45 z-score
C[C@]12CC[C@@H]3c4ccc(O)cc4CC[C@H]3[C@@H]1CC[C@@H]2O: 0.00434 z-score
COc1cc2nc(N3CCN(C(=O)C4COc5ccccc5O4)CC3)nc(N)c2cc1OC (stereo not drawn): -0.79 z-score and -4.05 z-score

Block 2
Compound: CN1CCN(c2cnc3c(C4CCN(C(=O)c5ccc(OC(F)(F)F)cc5N)CC4)ncnc3c2)CC1
Tested at: 1 µM
Quantity: remaining binding
SIK1 (Homo sapiens, UniProt P57059); competition binding: 92%
Cyclin-dependent kinase 4, with cyclin D3 (CDK4, Homo sapiens, UniProt P11802); cell-free assay, competition with immobilised ligand: 100%
DCLK2 (Homo sapiens, UniProt Q8N568); cell-free assay, competition with immobilised ligand: 100%
DDR2 (Homo sapiens, UniProt Q16832); cell-free assay, competition with immobilised ligand: 100%
CAMK4 (Homo sapiens, UniProt Q16566); cell-free assay, competition with immobilised ligand: 94%
Tyrosine-protein kinase ABL1, phosphorylated (ABL1, Homo sapiens, UniProt P00519, Y253F); cell-free assay, competition with immobilised ligand: 100%
TNNI3K (Homo sapiens, UniProt Q59H18); cell-free assay, competition with immobilised ligand: 100%
PKN2 (Homo sapiens, UniProt Q16513); cell-free assay, competition with immobilised ligand: 100%
PDGFRB (Homo sapiens, UniProt P09619); cell-free assay, competition with immobilised ligand: 95%
Aurora kinase A (AURKA, Homo sapiens, UniProt O14965); cell-free assay, competition with immobilised ligand: 100%
MKNK1 (Homo sapiens, UniProt Q9BUB5); cell-free assay, competition with immobilised ligand: 100%
CLK2 (Homo sapiens, UniProt P49760); cell-free assay, competition with immobilised ligand: 100%
CDK2 (Homo sapiens, UniProt P24941); cell-free assay, competition with immobilised ligand: 100%
RET (Homo sapiens, UniProt P07949, M918T); cell-free assay, competition with immobilised ligand: 100%
IKBKE (Homo sapiens, UniProt Q14164); cell-free assay, competition with immobilised ligand: 98%
EPHB2 (Homo sapiens, UniProt P29323); cell-free assay, competition with immobilised ligand: 78%
ERBB4 (Homo sapiens, UniProt Q15303); cell-free assay, competition with immobilised ligand: 79%
CAMK2D (Homo sapiens, UniProt Q13557); cell-free assay, competition with immobilised ligand: 100%
KDR (Homo sapiens, UniProt P35968); cell-free assay, competition with immobilised ligand: 100%
CDK14 (Homo sapiens, UniProt O94921); cell-free assay, competition with immobilised ligand: 100%
ACVR2B (Homo sapiens, UniProt Q13705); binding, competition with immobilised ligand: 100%
RIOK3 (Homo sapiens, UniProt O14730); cell-free assay, competition with immobilised ligand: 97%
MAP2K6 (Homo sapiens, UniProt P52564); cell-free assay, competition with immobilised ligand: 88%
EGFR (Homo sapiens, UniProt P00533, L858R/T790M); cell-free assay, competition with immobilised ligand: 95%
DAPK3 (Homo sapiens, UniProt O43293); cell-free assay, competition with immobilised ligand: 91%

Block 3
Structure (SMILES): C[C@@H](N)[C@H]1CC[C@H](C(=O)Nc2ccncc2)CC1
Effect on: enzyme activity
Action: inhibitor
Tested at: 0.5 µM
Reference: control
Quantity: remaining activity
LRRK2 (Homo sapiens, UniProt Q5S007): 67.8%
Cyclin-dependent kinase 9, with cyclin T1 (CDK9, Homo sapiens, UniProt P50750): 85.7%
PRKCI (Homo sapiens, UniProt P41743): 101%
MAP4K2 (Homo sapiens, UniProt Q12851): 94.4%
MAP2K6 (Homo sapiens, UniProt P52564): 92.5%
PLK2 (Homo sapiens, UniProt Q9NYY3): 91.2%
NEK4 (Homo sapiens, UniProt P51957): 87.7%
MAP3K10 (Homo sapiens, UniProt Q02779): 98.9%
AKT3 (Homo sapiens, UniProt Q9Y243): 97.3%
MAPK12 (Homo sapiens, UniProt P53778): 97.6%
CSNK1A1 (Homo sapiens, UniProt P48729): 103%
BTK (Homo sapiens, UniProt Q06187): 105%
CHEK1 (Homo sapiens, UniProt O14757): 91%
LYN (Homo sapiens, UniProt P07948): 98.9%
KIT (Homo sapiens, UniProt P10721): 93.8%
STK38 (Homo sapiens, UniProt Q15208): 106%
MAPK13 (Homo sapiens, UniProt O15264): 96%
CSNK2A1 (Homo sapiens, UniProt P68400): 96.6%
EPHA5 (Homo sapiens, UniProt P54756): 91.4%
IRAK4 (Homo sapiens, UniProt Q9NWZ3): 85.5%
MKNK2 (Homo sapiens, UniProt Q9HBH9): 79.1%
PRKCD (Homo sapiens, UniProt Q05655): 66.4%

Block 4
SMILES: CN(C(=O)c1ccn2ncc(-c3ccc(C(N)=O)cc3)c2c1)c1ccc(C#N)cn1
Organism: Cryptosporidium parvum
Method: time-kill
Cell line: HCT-8
Strain: nanoluciferase-expressing
Direction: higher = more parasites
Quantity: parasite luminescence
0.2469 µM, 8 h: 98000 RLU and 99200 RLU
0.7407 µM, 4 h: 72300 RLU and 77100 RLU
2.222 µM, 48 h: 33300 RLU and 22000 RLU
0.7407 µM, 8 h: 107000 RLU and 116000 RLU
0.02743 µM, 4 h: 71400 RLU and 68100 RLU
0.2469 µM, 4 h: 78000 RLU and 68500 RLU
6.667 µM, 24 h: 71200 RLU and 109000 RLU
0.00305 µM, 4 h: 84500 RLU and 76200 RLU

Repeated from above (block 2):
IKBKE (Homo sapiens, UniProt Q14164); cell-free assay, competition with immobilised ligand: 98%
CAMK4 (Homo sapiens, UniProt Q16566); cell-free assay, competition with immobilised ligand: 94%
RET (Homo sapiens, UniProt P07949, M918T); cell-free assay, competition with immobilised ligand: 100%
KDR (Homo sapiens, UniProt P35968); cell-free assay, competition with immobilised ligand: 100%
CLK2 (Homo sapiens, UniProt P49760); cell-free assay, competition with immobilised ligand: 100%
MAP2K6 (Homo sapiens, UniProt P52564); cell-free assay, competition with immobilised ligand: 88%
EPHB2 (Homo sapiens, UniProt P29323); cell-free assay, competition with immobilised ligand: 78%
DDR2 (Homo sapiens, UniProt Q16832); cell-free assay, competition with immobilised ligand: 100%
